Results pooled from the literature.
Numbered parts are unrelated; each lists some results of a single study.
UniProt Q9NRM7, sequence (whole entry, looked up): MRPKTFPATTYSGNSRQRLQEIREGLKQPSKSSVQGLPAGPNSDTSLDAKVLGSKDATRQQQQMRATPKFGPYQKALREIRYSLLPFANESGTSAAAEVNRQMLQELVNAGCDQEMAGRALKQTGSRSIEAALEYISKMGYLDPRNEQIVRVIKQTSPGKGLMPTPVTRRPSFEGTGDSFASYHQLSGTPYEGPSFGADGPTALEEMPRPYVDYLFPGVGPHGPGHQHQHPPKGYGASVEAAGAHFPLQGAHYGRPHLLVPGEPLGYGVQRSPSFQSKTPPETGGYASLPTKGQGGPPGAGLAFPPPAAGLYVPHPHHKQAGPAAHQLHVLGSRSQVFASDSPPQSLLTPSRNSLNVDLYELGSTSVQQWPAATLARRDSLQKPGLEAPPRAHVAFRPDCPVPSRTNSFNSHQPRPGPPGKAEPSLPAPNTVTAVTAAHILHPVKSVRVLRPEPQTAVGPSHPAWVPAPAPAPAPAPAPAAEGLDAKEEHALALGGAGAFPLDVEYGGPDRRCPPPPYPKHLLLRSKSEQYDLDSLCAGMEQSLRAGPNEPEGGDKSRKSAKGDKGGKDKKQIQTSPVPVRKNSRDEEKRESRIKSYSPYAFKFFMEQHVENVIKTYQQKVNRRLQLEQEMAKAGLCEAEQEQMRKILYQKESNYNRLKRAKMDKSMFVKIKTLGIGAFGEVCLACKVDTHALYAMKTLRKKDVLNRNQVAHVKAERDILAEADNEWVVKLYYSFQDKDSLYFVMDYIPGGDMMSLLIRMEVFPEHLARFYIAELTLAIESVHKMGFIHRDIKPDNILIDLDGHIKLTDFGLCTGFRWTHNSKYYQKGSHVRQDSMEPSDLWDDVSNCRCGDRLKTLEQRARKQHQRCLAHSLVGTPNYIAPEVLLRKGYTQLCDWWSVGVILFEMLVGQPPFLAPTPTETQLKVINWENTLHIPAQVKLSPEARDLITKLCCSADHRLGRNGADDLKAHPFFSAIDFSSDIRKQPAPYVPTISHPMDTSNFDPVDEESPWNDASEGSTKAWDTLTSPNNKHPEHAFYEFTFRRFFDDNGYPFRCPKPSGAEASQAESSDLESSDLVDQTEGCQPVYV
UniProt P08581, sequence (whole entry, looked up): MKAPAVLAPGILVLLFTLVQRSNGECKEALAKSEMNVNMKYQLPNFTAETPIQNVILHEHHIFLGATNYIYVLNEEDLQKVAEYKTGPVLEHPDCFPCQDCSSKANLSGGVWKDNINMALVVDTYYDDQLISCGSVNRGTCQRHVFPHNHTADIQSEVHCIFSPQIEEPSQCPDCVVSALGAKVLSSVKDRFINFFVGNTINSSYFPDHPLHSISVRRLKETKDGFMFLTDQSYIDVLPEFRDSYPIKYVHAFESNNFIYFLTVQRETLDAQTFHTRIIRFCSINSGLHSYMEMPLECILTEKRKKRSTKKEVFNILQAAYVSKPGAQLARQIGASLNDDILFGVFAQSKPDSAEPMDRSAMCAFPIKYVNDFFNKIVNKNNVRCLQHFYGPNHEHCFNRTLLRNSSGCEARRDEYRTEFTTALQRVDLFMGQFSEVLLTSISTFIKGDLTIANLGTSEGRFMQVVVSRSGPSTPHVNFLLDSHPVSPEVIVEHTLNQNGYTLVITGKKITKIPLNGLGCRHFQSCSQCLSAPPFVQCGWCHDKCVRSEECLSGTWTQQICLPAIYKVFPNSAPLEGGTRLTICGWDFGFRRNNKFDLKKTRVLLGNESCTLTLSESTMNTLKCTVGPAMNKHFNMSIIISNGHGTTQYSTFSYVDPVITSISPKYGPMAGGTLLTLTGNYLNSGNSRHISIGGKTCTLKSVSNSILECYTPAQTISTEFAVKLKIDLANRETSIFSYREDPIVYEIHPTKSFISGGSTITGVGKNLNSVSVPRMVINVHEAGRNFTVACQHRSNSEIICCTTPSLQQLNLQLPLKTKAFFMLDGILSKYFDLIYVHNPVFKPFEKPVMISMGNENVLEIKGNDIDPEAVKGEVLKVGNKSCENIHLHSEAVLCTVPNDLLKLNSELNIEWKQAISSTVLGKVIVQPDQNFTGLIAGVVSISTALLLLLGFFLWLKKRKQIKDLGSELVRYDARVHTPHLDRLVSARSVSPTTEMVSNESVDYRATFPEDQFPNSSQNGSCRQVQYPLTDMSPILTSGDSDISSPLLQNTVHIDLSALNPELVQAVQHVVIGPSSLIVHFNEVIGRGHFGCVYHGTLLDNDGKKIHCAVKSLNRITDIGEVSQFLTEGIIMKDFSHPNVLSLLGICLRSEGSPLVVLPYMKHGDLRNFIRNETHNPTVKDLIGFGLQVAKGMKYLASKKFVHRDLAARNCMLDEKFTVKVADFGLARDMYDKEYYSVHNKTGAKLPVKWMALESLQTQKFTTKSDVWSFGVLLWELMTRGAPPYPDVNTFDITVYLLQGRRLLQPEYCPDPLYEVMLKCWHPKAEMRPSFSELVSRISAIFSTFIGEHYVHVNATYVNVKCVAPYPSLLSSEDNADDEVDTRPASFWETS
UniProt Q15208, sequence (whole entry, looked up): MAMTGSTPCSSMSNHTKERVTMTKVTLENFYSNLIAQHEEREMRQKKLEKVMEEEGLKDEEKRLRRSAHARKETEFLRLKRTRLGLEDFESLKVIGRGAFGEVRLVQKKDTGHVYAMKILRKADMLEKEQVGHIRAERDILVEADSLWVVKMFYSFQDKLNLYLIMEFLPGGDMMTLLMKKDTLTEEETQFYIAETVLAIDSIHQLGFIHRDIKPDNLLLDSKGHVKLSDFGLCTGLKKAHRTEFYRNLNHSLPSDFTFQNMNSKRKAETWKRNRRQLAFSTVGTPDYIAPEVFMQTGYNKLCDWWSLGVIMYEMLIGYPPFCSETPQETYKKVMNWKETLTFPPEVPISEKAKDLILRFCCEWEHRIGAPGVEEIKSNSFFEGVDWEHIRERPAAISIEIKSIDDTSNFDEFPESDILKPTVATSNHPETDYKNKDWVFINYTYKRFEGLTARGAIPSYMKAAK
UniProt O75385, sequence (whole entry, looked up): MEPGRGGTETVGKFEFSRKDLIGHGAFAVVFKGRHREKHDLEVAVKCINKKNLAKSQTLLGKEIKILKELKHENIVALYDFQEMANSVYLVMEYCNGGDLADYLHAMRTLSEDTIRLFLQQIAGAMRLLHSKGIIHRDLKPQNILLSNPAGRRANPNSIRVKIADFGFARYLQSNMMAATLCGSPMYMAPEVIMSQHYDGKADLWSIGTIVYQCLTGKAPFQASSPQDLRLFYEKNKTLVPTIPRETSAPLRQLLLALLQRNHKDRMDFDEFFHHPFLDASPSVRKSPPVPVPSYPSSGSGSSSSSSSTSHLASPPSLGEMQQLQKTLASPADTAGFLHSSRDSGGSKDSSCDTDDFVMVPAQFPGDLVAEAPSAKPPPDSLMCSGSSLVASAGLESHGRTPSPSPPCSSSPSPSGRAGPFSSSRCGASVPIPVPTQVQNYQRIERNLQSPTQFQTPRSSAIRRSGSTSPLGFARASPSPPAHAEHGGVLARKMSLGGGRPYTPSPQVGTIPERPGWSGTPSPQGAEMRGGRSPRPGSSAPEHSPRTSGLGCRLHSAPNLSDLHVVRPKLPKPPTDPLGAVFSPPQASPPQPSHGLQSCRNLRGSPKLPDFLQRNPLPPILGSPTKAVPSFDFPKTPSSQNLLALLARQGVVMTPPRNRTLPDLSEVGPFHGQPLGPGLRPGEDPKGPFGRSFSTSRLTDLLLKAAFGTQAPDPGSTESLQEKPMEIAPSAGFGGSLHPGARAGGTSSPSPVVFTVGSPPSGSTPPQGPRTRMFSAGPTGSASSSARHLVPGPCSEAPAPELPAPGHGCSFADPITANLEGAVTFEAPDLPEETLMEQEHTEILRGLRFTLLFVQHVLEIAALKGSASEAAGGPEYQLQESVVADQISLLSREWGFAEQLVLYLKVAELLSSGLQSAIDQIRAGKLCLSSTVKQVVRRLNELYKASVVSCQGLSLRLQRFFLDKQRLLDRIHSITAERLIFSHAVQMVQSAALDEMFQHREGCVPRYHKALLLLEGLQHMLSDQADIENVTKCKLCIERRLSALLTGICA

Block 1 — technique: competition with immobilised ligand; concentration: 1 µM
Structure (SMILES): CN(c1ccnc(CNc2nc(Nc3ccc4c(c3)CC(=O)N4)ncc2C(F)(F)F)n1)S(C)(=O)=O
STK38 (Homo sapiens, UniProt Q15208); cell-free assay — remaining binding: 65%.
The remaining binding was 14% (MET (Homo sapiens, UniProt P08581); cell-free assay).
For ULK1 (Homo sapiens, UniProt O75385); binding: remaining binding read 1.2%.
KIT (Homo sapiens, UniProt P10721); cell-free assay — remaining binding: 85%.
The remaining binding was 43% (PKN1 (Homo sapiens, UniProt Q16512); cell-free assay).
The remaining binding was 67% (CAMK2A (Homo sapiens, UniProt Q9UQM7); cell-free assay).
For MAP3K11 (Homo sapiens, UniProt Q16584); cell-free assay: remaining binding read 32%.
The remaining binding was 71% (MYLK (Homo sapiens, UniProt Q15746); cell-free assay).
It gave 100% for remaining binding (RIPK1 (Homo sapiens, UniProt Q13546); cell-free assay).
For LATS2 (Homo sapiens, UniProt Q9NRM7); cell-free assay: remaining binding read 42%.
It gave 100% for remaining binding (STK4 (Homo sapiens, UniProt Q13043); cell-free assay).
The remaining binding was 82% (MAP2K2 (Homo sapiens, UniProt P36507); cell-free assay).
SBK3 (Homo sapiens, UniProt P0C264); cell-free assay — remaining binding: 100%.

Block 2 — mode: inhibitor; concentration: 10 µM; baseline: control
Target: Diamine acetyltransferase 1 (Homo sapiens, UniProt P21673)
Residues (P21673 1-171): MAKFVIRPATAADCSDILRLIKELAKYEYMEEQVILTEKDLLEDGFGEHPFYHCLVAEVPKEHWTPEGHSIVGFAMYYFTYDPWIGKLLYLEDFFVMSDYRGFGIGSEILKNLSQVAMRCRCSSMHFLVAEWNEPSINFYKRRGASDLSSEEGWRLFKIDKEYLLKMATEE
With `COc1ccc2c(OC)c3ccoc3nc2c1OC` the remaining activity was 88.4%.
The remaining activity of `O=c1cc(-c2ccc(O)c(O)c2)oc2cc(O[C@@H]3O[C@H](CO)[C@@H](O)[C@H](O)[C@H]3O)cc(O)c12` is reported as 112%.
With `CC[C@H](CC[C@@H](C)[C@H]1CC[C@H]2[C@@H]3CC=C4C[C@@H](O)CC[C@]4(C)[C@H]3CC[C@]12C)C(C)C` the remaining activity was 100%.
The remaining activity of `Nc1[nH]cnc2ncnc1-2` is reported as 83%.
`COc1cc(-c2coc3c([C@@H]4O[C@H](CO)[C@@H](O)[C@H](O)[C@H]4O)c(O)ccc3c2=O)ccc1O` has a remaining activity of 78.7%.
The remaining activity of `Oc1cccc(O)c1O` is reported as 88.5%.
`C=CCC(=NOS(=O)(=O)O)S[C@@H]1O[C@H](CO)[C@@H](O)[C@H](O)[C@H]1O` (stereo in doubt) gave a remaining activity of 99.5%.
With `CCCCCCCCCCCCCCCCCCCCCCCCCCCCCC(=O)O` the remaining activity was 80.5%.

Block 3 — effect on: enzyme activity; mode: inhibitor; concentration: 0.5 µM; baseline: control
Target: Mitogen-activated protein kinase kinase kinase 20 (MAP3K20, Homo sapiens, UniProt Q9NYL2)
UniProt Q9NYL2, sequence (whole entry, looked up): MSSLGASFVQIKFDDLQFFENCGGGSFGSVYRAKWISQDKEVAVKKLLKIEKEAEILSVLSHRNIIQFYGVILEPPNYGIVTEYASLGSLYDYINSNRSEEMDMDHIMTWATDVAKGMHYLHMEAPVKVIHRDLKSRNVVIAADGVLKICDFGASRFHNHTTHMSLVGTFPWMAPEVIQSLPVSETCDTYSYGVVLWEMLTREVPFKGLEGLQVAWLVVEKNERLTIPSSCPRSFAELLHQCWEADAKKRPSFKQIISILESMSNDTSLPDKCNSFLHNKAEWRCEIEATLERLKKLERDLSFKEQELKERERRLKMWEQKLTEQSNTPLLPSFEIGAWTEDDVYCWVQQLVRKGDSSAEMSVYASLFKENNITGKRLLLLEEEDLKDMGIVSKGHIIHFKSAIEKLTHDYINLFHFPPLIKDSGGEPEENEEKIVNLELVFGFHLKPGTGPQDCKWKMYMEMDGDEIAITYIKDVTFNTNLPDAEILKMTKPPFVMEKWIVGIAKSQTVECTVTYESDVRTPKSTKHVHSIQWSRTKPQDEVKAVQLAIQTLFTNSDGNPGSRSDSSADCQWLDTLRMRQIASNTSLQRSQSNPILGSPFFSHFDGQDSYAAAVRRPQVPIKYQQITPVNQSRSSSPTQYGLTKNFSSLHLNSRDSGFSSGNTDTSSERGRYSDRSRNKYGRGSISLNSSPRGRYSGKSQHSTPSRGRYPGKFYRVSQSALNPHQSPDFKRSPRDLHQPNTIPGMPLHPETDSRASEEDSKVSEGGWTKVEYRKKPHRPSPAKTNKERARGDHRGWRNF
The remaining activity of `c1ccc(-c2[nH]ncc2-c2ccnc3ccccc23)nc1` is reported as 78%.
With `Cc1cc2ncc(-c3ccccc3)nc2cc1C` the remaining activity was 102%.
For `CCOc1nc(NC(=O)Cc2cc(OC)ccc2OC)cc(N)c1C#N`, the remaining activity was 90.4%.
`c1ccc(-c2cnc(Nc3ccc(OCCN4CCCC4)cc3)s2)cc1` gave a remaining activity of 25.9%.
The remaining activity of `Cc1nc2cc3nc(-c4cccs4)cnc3cc2n1C` is reported as 89.1%.
`CCN(CC)C(=O)c1ccc(Nc2nc(OCC3CCCCC3)c3[nH]cnc3n2)cc1` gave a remaining activity of 91.4%.
`O=C1c2ccccc2-c2n[nH]c3cccc1c23` gave a remaining activity of 75.5%.
The remaining activity of `O=C1C(Cl)=C(N2C(=O)CCC2=O)C(=O)c2ccccc21` is reported as 97.9%.
The remaining activity of `COc1cc2ncnc(Nc3cccc(Cl)c3)c2cc1OC` is reported as 99.3%.

Mixed results
With `CCC[C@@H]1NC(=O)CSC[C@@H](C(=O)OCC)N(C)C(=O)[C@H](CC(C)C)NC(=O)[C@@H](C)N(C)C(=O)[C@@H](CC(C)C)NC(=O)[C@H](C)N(C)C(=O)[C@@H]2CCCN2C(=O)[C@@H](CC(C)C)NC(=O)CN(C)C1=O` the logD was 0.477 (hydrocarbon/water).

Excerpt of the above (block 1):
For MAP3K11 (Homo sapiens, UniProt Q16584); cell-free assay: remaining binding read 32%.
The remaining binding was 67% (CAMK2A (Homo sapiens, UniProt Q9UQM7); cell-free assay).
